Experimental data from different studies.
Protocols differ between the studies behind these lines. ± gives the spread as reported.
PLEKHA5 PH domain: Pleckstrin homology domain-containing family A member 5, PH domain (PLEKHA5, Homo sapiens, UniProt Q9HAU0)
ZBTB11/CRBN: ZBTB11/CRBN (Homo sapiens, UniProt O95625+Q96SW2)
Alpha-carbonic anhydrase: Alpha-carbonic anhydrase (Enterococcus faecium, UniProt Q3XYE8)
USP20 ZnF-UBD domain: Ubiquitin carboxyl-terminal hydrolase 20, ZnF-UBD domain (USP20, Homo sapiens, UniProt Q9Y2K6)
Ubiquitin carboxyl-terminal hydrolase 39 ZnF-UBD domain: Ubiquitin carboxyl-terminal hydrolase 39, ZnF-UBD domain (Homo sapiens, UniProt Q53GS9)
USP49 ZnF-UBD domain: Ubiquitin carboxyl-terminal hydrolase 49, ZnF-UBD domain (USP49, Homo sapiens, UniProt Q70CQ1)

`CCOc1ccc(C(=O)CC(SCc2ccc(Cl)cc2)C(=O)OC)cc1` (centres unmarked) has a Ki of 135 ± 20 µM (PLEKHA5 PH domain; PLEKHA5 PI(4,5)P2 binding, fluorescence polarization; together with: BODIPY-PI(4,5)P2 tracer).
The DC50 of `CCC(C)(NCCc1cccc(Cl)c1)c1cccc(NC2=CC(=O)N(C3CCC(=O)NC3=O)C2=O)c1` (centres unmarked) is reported as 17 µM (ZBTB11/CRBN; degrader, HiBiT luminescence, item: endogenous HiBiT-tagged protein).
`NS(=O)(=O)c1nnc(NC(=O)CN2CCC3(CC2)CC3)s1` has a Ki of 0.0245 µM (Alpha-carbonic anhydrase; CO2 hydration, inhibitor, stopped-flow kinetics).
With `NC(=O)[C@H]1CCCN1C(=O)CCC(=O)O` the Kd was greater than 1000 µM (USP20 ZnF-UBD domain).
For `CC1(C(=O)Nc2nnc(S(N)(=O)=O)s2)CC1`, the Ki was 0.0136 µM (Alpha-carbonic anhydrase; CO2 hydration, inhibitor, stopped-flow kinetics).
The EC50 of `CCn1c(-c2nc3ccc(C(=O)N4CCCC(N)C4)cc3n2C)cc2ccccc21` (centres unmarked) is reported as greater than 31.6 µM (5-hydroxytryptamine receptor 1B (HTR1B, Homo sapiens, UniProt P28222); agonist, GTPγS binding).
`COc1cc2c(cc1OC)C1CC(=O)C(CC(C)C)CN1CC2` (centres unmarked) gave an IC50 of 0.23 µM (Synaptic vesicular amine transporter (SLC18A2, Homo sapiens, UniProt Q05940, Y433A); transporter uptake, fluorescence imaging; mutant Y433A, together with: 5 µM FFN206).
The Ki of `NS(=O)(=O)c1nnc(NC(=O)CCCCC2CCCCC2)s1` is reported as 0.085 µM (Alpha-carbonic anhydrase; CO2 hydration, inhibitor, stopped-flow kinetics).
For `NC(=O)c1cc(-n2c(CCC(=O)O)nc3ccccc32)cs1`, the Kd was 464 µM (USP20 ZnF-UBD domain).
The Kb of `COc1cc(Cl)c(S(=O)(=O)N2CCCCC2)cc1Cl` is reported as 0.0064 µM (Melanopsin (OPN4, Homo sapiens, UniProt Q9UHM6); calcium release, antagonist; CHO cells expressing OPN4).
The DC50 of `CC(C)(CNC1(c2cccc(NC3=CC(=O)N(C4CCC(=O)NC4=O)C3=O)c2)CCC1)c1ccc(C(F)(F)F)c(Cl)c1` (centres unmarked) is reported as 2 ± 2.7 µM (ZBTB11/CRBN; degrader; human cells).
With `O=C(O)CCn1ccccc1=O` the Kd was greater than 1000 µM (USP20 ZnF-UBD domain).
`CN1CCN(c2ccc(Nc3ncc4cc(C#N)c(=O)n(C5CCCC5)c4n3)cc2)CC1` gave an IC50 of 0.0692 µM (Serine/threonine-protein kinase PAK 3 (PAK3, Homo sapiens, UniProt O75914)).
`O=CC[C@H](O)[C@H](O)COP(=O)(O)O`: “z-scored log2 fold change” 0.202 (binding, equilibrium dialysis LC-MS; 5 µM, thermostabilized A2AR-BRIL construct; reference: no-protein control, direction not given).
With `CC[C@@H]1[C@H](F)C(=O)N[C@@H]1COc1nccc2cc(C(N)=O)c(OC)cc12` the IC50 was 0.096 µM (Casein kinase I isoform gamma-2 (CSNK1G2, Homo sapiens, UniProt P78368); ATP-site probe binding, ActivX profiling; THP-1 cell lysate; Lys2 site).
The Kd of `O=C(O)CCC(=O)c1cccs1` is reported as greater than 1000 µM (Ubiquitin carboxyl-terminal hydrolase 39 ZnF-UBD domain).
`Cc1cccc(CC(=O)Nc2nnc(S(N)(=O)=O)s2)c1` has a Ki of 0.0517 µM (Alpha-carbonic anhydrase; CO2 hydration, inhibitor, stopped-flow kinetics).
The Kd of `O=C(O)CCn1cnc2ccccc21` is reported as greater than 1000 µM (Ubiquitin carboxyl-terminal hydrolase 39 ZnF-UBD domain).
For `NS(=O)(=O)c1nnc(NC(=O)COC2CCCCC2)s1`, the Ki was 0.0137 µM (Alpha-carbonic anhydrase; CO2 hydration, inhibitor, stopped-flow kinetics).
The DC50 of `O=C1CCC(N2C(=O)C=C(Nc3cccc(C4(NCCc5ccc(C(F)(F)F)c(Cl)c5)CCCC4)c3)C2=O)C(=O)N1` (centres unmarked) is reported as 0.2 ± 0.13 µM (ZBTB11/CRBN; degrader; human cells).
For `O=C(O)Cc1nc2ccccc2o1`, the Kd was greater than 1000 µM (USP49 ZnF-UBD domain).
`NS(=O)(=O)c1cnc(NC(=O)CCc2ccccc2)s1` gave a Ki of 0.525 µM (Alpha-carbonic anhydrase; CO2 hydration, inhibitor, stopped-flow kinetics).
For `CCOc1ccccc1C(=O)CC(SCc1ccc(Cl)cc1)C(=O)O` (centres unmarked), the Ki was 25.4 ± 3 µM (PLEKHA5 PH domain; PLEKHA5 PI(4,5)P2 binding, fluorescence polarization; together with: BODIPY-PI(4,5)P2 tracer).
With `NS(=O)(=O)c1nnc(NC(=O)C(F)C2CCCCC2)s1` (centres unmarked) the Ki was 0.0114 µM (Alpha-carbonic anhydrase; CO2 hydration, inhibitor, stopped-flow kinetics).
For `CC(C)C[C@H](NC(=O)C[C@H](O)[C@H](CC(C)C)NC(=O)[C@H](Cc1c[nH]cn1)NC(=O)CNC(=O)[C@@H](NC(=O)[C@H](C)NC(=O)[C@H](Cc1c[nH]c2ccccc12)NC(=O)[C@H](CCC(N)=O)NC(=O)[C@@H](Cc1ccccc1)NC(=O)COCCOCCNC(=O)CN1CCN(CC(=O)O)CCN(CC(=O)O)CCN(CC(=O)O)CC1)C(C)C)C(N)=O` [lutetium-177 labelled], the tissue uptake was 0.03 ± 0.01 %ID/g (female BALB/c nu/nu mice, pancreas; intravenous, 50 pmol, 24 h).
The Ki of `CC1(C(=O)Nc2nnc(S(N)(=O)=O)s2)COC1` is reported as 0.0205 µM (Alpha-carbonic anhydrase; CO2 hydration, inhibitor, stopped-flow kinetics).
For `OC[C@H]1OC(O)[C@H](O)[C@@H](O)[C@@H]1O` (some centres unmarked), the Ki was 2000 ± 1000 µM (Hexokinase-3 (HK3, Homo sapiens, UniProt P52790); enzyme activity, substrate inhibitor, coupled G6PDH; partial inhibition model, together with: ATP 20 mM).
`CCC(C)(NCCc1ccc(C(F)(F)F)c(Cl)c1)c1cccc(NC2=CC(=O)N(C3CCC(=O)NC3=O)C2=O)c1` (centres unmarked) has a DC50 of 0.44 ± 0.15 µM (ZBTB11/CRBN; degrader, HiBiT; MOLT-4; 5 h).
For `CC(=O)N[C@H]1[C@@H](OP(=O)(O)OP(=O)(O)OC[C@H]2O[C@@H](n3ccc(=O)[nH]c3=O)[C@H](O)[C@@H]2O)O[C@H](CO)[C@@H](O)[C@@H]1O`, “z-scored log2 fold change” read 0.075 (binding, equilibrium dialysis LC-MS; 5 µM, thermostabilized A2AR-BRIL construct; reference: no-protein control, direction not given).
With `CCC(C)(NCCc1cc(C(F)(F)F)cc(C(F)(F)F)c1)c1cccc(NC2=CC(=O)N(C3CCC(=O)NC3=O)C2=O)c1` (centres unmarked) the DC50 was 13 ± 3.5 µM (ZBTB11/CRBN; degrader, HiBiT luminescence, item: endogenous HiBiT-tagged protein).
`Nc1ncnc2c1ncn2[C@@H]1O[C@H](COP(=O)(O)OP(=O)(O)NP(=O)(O)O)[C@@H](O)[C@H]1O`: apparent Kd “increased” (Inositol-tetrakisphosphate 1-kinase (Homo sapiens, UniProt Q13572); binding, microscale thermophoresis; together with: increasing ATP).
With `O=C1CCC(N2C(=O)C=C(Nc3cccc(C4(NCCc5ccc(Cl)c(C(F)(F)F)c5)CCC4)c3)C2=O)C(=O)N1` (centres unmarked) the DC50 was 0.28 ± 0.12 µM (ZBTB11/CRBN; degrader; human cells).
The Kd of `O=C(O)Cc1cccnc1` is reported as 283 µM (USP49 ZnF-UBD domain).
For `O=C1CCC(N2C(=O)C=C(Nc3cccc(C(NCCc4ccc(C(F)(F)F)c(Cl)c4)c4ccccc4)c3)C2=O)C(=O)N1` (centres unmarked), the DC50 was 25 µM (ZBTB11/CRBN; degrader, HiBiT luminescence, item: endogenous HiBiT-tagged protein).
`Cc1cc(NC(=O)CCC(=O)O)nn1C` has a Kd of 777 µM (USP20 ZnF-UBD domain).
